Measured values from different studies.
Lines come from different studies, so protocols differ.

| Structure (SMILES) | assay | test system | conditions | endpoint | value |
| --- | --- | --- | --- | --- | --- |
| COc1nnc2ccc(N3CCC(c4ccc(OCCN5CCN(C)C(=O)[C@H]5C)cc4)CC3)nn12 | measured: thrombocytopenia | patients with solid tumours or lymphoma | oral, dose not given, grade at least 3, treatment-emergent | patients with adverse event | 14.7% |
| N[C@@H]1c2ccccc2OC12CCN(c1cnc3c(N4CCCc5ncccc54)n[nH]c3n1)CC2 |  | advanced solid tumour patients | oral, 20 mg once daily | patients with fatal TEAE | 0% |
| CCNCCCNC/C=C\CNCCCNCC |  | advanced refractory solid tumour patients | intravenous, dose not given, cycle 2 | patients with TEAEs | 70% |
| COc1c(C)cnc(Cn2cc(C#CCCOP(=O)(O)O)c3c(Cl)nc(N)nc32)c1C |  | patients, advanced solid tumours | dose not given, all doses | patients with headache | 12% |
| CN1CC[C@@H](c2c(O)cc(O)c3c(=O)cc(-c4ccc(C(F)(F)F)cc4Cl)oc23)[C@@H]1CO | measured: Leukopenia | relapsed B-cell malignancies | oral, 200 mg, grade 3-4, intermittent dosing | patients with adverse event | 0% |
| Nc1nc2cc(-c3ccc4ncc(C(=O)N5CCOCC5)n4c3)ccc2o1 | measured: Diarrhea | advanced solid tumour patients | dose not given, all grades, all doses | patients with adverse event | 46% |
| C[C@@H]1OC(=O)NN=C1c1ccc(-c2ccc(F)cc2)c(C(F)(F)F)c1 |  | patients, phase I trial | oral, 5 mg once daily, any grade TEAE | patients with abdominal distension | 0% |
| Cn1cc(-c2nc(N[C@@H]3CCCC[C@@H]3N)c(F)c3c2C(=O)NC3)cn1 |  | relapsed/refractory AML patients | oral, dose not given, phase Ib trial, all doses | patients with subdural haematoma | 7% |
| C=CC(=O)N1CC[C@H](n2nc(C#Cc3cc(OC)cc(OC)c3)c3c(N)ncnc32)C1 | measured: blood creatinine increased | hyperphosphataemia patients | oral, once daily, any grade, ferric citrate users | patients with ADR | 100% |
| O=C1Nc2cc3[nH]nc(-c4ccncc4)c3cc2CN1Cc1ccccc1 | CTCAE v4.03 | advanced solid tumour patients | intravenous, 7.2 mg/kg, schedules 1/2 | patients with fatigue | 20% |
| C=CCNc1c(O)cc2c(O)c1C[C@@H](C)C[C@H](OC)[C@H](O)[C@@H](C)/C=C(\C)[C@H](OC(N)=O)[C@@H](OC)/C=C\C=C(/C)C(=O)N2 |  | unresectable or metastatic STS, GIST, other | intravenous, 400 mg/m^2 | patients with arthralgia TEAE | 41% |
| CO[C@H]1C[C@@H]2CC[C@@H](C)[C@@](O)(O2)C(=O)C(=O)N2CCCC[C@H]2C(=O)O[C@H]([C@H](C)C[C@@H]2CC[C@@H](OC(=O)NCCOCCOCCOCCOCCOCCOCCOCCOCCC(=O)N3CCc4cc(Cn5nc(-c6ccc7oc(N)nc7c6)c6c(N)ncnc65)ccc4C3)[C@H](OC)C2)C[C@@H](O)[C@H](C)/C=C(\C)[C@@H](O)[C@@H](OC)C(=O)[C@H](C)C[C@H](C)/C=C/C=C/C=C/1C | measured: treatment-related decreased appetite | patients with advanced solid tumours | intravenous, dose not given, any grade, all doses | patients with AE | 29.8% |
| COc1ccc(-c2c(-c3ccc(C#N)c(F)c3)nc(N3CCC(N)CC3)n(C)c2=O)cc1F | measured: decreased appetite | relapsed/refractory MZL patients | oral, 60 mg, dose expansion | patients with TRAE any grade | 0% |
| COc1cc2c(Oc3ccc4[nH]c(C)cc4c3F)ccnc2cc1OCC1(N)CC1 |  | paediatric refractory sarcoma patients | dose not given | patients with grade 3 AST elevation | 0% |
| CC(=O)c1c(C)c2cnc(Nc3ccc(C4CCN(CCS(C)(=O)=O)CC4)cn3)nc2n(C2CCCC2)c1=O |  | HR+/HER2- advanced breast cancer patients | oral, dose not given, all grades,, total | patients with GGT increased | 21% |
| [O-][S+]1CCc2nc(N3CCC(c4ncc(Cl)cn4)CC3)nc(NC3(CO)CCC3)c21 (centres unmarked) | adverse event | idiopathic pulmonary fibrosis patients | 18 mg twice daily | patients with occult blood positive | 30% |
| Cc1cc(OCCOCCC(F)(F)P(=O)(O)O)ccc1CCc1cnc2c(N)nc3cc(CCC(=O)O)ccc3c2c1 | measured: asthenia | adults with advanced solid tumours | dose not given, by treatment group, all grades | patients with non-serious AE | 23.8% |

For quick reference, copied from above:
| Structure (SMILES) | assay | test system | conditions | endpoint | value |
| --- | --- | --- | --- | --- | --- |
| COc1nnc2ccc(N3CCC(c4ccc(OCCN5CCN(C)C(=O)[C@H]5C)cc4)CC3)nn12 | measured: thrombocytopenia | patients with solid tumours or lymphoma | oral, dose not given, grade at least 3, treatment-emergent | patients with adverse event | 14.7% |
